# Measured values of several laboratories.
# Every numbered part comes from another study and shows a few of its results, in no order. “And” joins repeats or separate records; there may be more than shown.
# Sequence of UniProt Q16539 (whole entry, looked up): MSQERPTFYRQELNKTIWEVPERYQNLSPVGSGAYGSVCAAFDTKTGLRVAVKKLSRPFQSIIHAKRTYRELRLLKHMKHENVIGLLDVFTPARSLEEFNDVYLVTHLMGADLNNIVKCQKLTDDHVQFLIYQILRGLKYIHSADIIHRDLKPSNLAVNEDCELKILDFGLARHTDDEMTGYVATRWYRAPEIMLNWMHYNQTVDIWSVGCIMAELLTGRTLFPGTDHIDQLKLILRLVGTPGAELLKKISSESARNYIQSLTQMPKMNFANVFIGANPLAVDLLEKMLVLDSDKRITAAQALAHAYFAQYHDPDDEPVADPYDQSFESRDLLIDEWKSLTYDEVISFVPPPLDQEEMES
# Sequence of UniProt P42336 (whole entry, looked up): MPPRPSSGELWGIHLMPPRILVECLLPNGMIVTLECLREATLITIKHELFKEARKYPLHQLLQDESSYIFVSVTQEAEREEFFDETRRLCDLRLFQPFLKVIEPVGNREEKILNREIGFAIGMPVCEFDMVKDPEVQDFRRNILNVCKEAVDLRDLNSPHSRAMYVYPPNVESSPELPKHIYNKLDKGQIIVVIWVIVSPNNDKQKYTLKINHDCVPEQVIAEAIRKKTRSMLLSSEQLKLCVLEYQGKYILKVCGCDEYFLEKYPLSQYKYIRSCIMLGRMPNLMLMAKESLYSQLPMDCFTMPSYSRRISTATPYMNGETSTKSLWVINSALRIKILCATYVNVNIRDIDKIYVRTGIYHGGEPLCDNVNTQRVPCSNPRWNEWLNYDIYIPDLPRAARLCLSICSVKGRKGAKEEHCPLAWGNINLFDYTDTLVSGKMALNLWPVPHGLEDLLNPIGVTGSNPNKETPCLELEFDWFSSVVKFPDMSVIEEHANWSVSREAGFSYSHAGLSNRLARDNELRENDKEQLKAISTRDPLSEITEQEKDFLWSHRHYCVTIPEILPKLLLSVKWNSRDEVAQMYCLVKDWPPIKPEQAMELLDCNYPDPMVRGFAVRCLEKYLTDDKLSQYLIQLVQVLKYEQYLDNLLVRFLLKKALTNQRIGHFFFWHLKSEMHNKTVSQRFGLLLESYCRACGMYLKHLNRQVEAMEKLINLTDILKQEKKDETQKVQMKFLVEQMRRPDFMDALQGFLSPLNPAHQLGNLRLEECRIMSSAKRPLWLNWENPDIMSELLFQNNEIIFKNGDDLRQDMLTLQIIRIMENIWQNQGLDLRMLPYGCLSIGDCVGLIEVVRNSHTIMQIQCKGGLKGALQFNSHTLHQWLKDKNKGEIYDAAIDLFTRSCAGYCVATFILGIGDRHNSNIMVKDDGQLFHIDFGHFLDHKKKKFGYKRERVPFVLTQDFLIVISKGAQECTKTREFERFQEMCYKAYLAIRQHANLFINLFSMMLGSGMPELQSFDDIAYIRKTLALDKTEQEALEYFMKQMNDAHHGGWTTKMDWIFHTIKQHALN
# Sequence of UniProt Q04912 (whole entry, looked up): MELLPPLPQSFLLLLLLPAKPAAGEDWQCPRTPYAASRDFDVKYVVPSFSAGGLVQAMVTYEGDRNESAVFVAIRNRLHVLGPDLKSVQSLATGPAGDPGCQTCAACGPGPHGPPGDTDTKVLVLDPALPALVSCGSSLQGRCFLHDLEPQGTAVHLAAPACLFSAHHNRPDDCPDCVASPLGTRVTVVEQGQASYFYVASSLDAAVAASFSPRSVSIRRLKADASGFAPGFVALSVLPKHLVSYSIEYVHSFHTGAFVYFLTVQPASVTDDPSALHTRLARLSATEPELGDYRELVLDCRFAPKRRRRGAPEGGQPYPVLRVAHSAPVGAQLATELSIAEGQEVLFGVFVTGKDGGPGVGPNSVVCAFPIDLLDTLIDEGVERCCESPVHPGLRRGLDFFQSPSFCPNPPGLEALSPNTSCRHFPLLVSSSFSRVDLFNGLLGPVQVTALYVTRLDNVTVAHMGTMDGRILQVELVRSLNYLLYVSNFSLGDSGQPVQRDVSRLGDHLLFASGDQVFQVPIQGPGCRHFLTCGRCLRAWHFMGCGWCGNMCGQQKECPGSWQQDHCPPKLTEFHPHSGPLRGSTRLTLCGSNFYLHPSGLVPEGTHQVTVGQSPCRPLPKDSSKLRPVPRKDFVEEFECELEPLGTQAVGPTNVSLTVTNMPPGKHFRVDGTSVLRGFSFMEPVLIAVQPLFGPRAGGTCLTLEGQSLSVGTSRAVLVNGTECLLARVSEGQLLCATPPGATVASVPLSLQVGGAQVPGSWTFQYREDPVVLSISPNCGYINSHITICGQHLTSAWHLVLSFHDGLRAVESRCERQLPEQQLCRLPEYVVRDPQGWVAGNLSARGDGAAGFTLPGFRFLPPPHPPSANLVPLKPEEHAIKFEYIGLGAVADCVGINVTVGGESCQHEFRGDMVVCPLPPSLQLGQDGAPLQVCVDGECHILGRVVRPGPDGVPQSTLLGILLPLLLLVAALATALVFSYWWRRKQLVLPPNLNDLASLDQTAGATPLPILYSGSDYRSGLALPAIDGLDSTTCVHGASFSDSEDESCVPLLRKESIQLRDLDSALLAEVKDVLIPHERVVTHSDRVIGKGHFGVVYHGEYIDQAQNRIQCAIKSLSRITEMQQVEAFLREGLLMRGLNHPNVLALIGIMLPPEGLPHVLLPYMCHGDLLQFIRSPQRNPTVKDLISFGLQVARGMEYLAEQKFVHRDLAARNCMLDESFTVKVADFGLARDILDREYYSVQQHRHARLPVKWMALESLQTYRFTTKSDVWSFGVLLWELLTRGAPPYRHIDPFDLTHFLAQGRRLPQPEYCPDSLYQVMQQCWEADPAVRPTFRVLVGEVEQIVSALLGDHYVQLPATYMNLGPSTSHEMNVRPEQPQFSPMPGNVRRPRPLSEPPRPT
# Sequence of UniProt P49336 (whole entry, looked up): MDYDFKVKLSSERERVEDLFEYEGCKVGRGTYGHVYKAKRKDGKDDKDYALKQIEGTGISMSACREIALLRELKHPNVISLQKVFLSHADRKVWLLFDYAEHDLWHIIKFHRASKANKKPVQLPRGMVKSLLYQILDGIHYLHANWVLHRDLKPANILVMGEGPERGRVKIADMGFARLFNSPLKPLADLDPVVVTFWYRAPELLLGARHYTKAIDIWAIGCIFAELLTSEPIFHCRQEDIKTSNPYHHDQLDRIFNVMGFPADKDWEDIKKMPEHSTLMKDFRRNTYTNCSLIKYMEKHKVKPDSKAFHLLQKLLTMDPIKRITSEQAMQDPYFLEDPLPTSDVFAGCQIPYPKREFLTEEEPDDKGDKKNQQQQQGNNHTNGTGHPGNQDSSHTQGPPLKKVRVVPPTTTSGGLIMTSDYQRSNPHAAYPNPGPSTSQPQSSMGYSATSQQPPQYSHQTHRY
# Sequence of UniProt Q9Y2H9 (whole entry, looked up): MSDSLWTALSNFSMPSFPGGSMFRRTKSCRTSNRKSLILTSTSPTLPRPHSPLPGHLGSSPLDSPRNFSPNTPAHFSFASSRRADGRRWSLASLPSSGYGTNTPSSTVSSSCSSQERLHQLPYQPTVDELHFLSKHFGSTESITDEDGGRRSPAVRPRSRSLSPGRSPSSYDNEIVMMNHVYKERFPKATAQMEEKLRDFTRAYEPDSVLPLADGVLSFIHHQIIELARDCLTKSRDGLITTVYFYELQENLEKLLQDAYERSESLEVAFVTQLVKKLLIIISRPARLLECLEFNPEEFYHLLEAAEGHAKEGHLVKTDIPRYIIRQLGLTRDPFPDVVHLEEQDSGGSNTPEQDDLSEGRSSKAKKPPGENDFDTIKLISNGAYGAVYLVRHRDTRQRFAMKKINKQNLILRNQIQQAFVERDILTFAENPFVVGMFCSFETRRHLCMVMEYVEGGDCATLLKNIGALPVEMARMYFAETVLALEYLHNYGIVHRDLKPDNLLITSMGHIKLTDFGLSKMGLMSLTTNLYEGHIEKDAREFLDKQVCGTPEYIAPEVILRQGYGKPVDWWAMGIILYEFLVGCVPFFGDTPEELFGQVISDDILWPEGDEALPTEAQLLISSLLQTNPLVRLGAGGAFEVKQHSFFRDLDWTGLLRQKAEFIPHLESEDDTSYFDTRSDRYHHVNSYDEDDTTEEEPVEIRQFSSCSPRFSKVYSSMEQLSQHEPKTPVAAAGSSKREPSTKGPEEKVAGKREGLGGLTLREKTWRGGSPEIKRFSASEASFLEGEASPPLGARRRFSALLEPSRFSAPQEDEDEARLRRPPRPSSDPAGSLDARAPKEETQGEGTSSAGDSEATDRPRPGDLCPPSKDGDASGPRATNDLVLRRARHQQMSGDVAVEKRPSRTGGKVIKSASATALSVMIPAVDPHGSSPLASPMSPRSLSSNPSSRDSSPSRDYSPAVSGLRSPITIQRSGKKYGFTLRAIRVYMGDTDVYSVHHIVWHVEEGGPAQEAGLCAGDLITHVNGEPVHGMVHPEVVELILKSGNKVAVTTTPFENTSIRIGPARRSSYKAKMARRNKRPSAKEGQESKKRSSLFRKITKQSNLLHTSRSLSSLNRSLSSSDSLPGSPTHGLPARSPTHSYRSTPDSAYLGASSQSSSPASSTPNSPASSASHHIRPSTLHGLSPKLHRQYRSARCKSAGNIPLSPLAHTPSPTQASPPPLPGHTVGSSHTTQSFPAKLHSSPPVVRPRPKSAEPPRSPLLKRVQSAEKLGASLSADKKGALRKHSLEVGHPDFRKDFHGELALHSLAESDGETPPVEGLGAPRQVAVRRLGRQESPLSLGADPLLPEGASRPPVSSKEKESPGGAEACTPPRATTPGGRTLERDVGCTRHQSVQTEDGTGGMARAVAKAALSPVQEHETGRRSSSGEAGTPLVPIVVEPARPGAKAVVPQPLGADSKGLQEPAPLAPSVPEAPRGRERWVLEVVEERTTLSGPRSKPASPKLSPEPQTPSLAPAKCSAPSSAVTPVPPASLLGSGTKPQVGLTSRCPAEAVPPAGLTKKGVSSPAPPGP

# Set 1
# Structure (SMILES): CNC(=O)Nc1ccc2c(c1)CC[C@@]21OC(=O)N(CC(=O)N(Cc2ccc(F)cc2)[C@@H](C)C(F)(F)F)C1=O
# Read-out: cell-free assay
# Technique: competition with immobilised ligand
# Tested at: 1 µM
target,remaining binding
"MAPK7 (Homo sapiens, UniProt Q13164)",60%
"MST1R (Homo sapiens, UniProt Q04912)",77%
"Tyrosine-protein kinase ABL1, phosphorylated (ABL1, Homo sapiens, UniProt P00519, F317I)",87%
"GRK4 (Homo sapiens, UniProt P32298)",98%
"MAST1 (Homo sapiens, UniProt Q9Y2H9)",94%
"TBK1 (Homo sapiens, UniProt Q9UHD2)",83%
"TSSK3 (Homo sapiens, UniProt Q96PN8)",88%
"MAPK14 (Homo sapiens, UniProt Q16539)",100%
"CDK8 (Homo sapiens, UniProt P49336)",100%
"CAMKK1 (Homo sapiens, UniProt Q8N5S9)",70%
"PIK3CA (Homo sapiens, UniProt P42336)",83%
"Ribosomal protein S6 kinase alpha-1, C-terminal kinase domain (RPS6KA1, Homo sapiens, UniProt Q15418)",88%

# Set 2
# Target: Histone acetyltransferase KAT6A, winged helix 2, GST fusion (KAT6A, Homo sapiens, UniProt Q92794, residues 85-181)
# Technique: protein binding microarray
# Molecule type: double-stranded DNA, one strand shown
# Matrix: in vitro
# Tested at: not given
# Setting: 8-mer, flanks averaged, mean of 2 arrays, mostly near background
# Relative to: not given
# Reading: higher = stronger binding
# Residues (chain): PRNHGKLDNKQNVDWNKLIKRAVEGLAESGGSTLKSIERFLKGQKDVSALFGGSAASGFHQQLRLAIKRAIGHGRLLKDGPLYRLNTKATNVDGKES
Sequence,E-score
GGGGACAA,0.0526
GTATATAA,-0.0559
CGCCAACC,0.163
CACTAGGG,-0.054
CTAGAGTA,-0.0932
CAGAGAGC,0.0328
CTACAGTA,-0.275
CTTCCAGC,-0.00037

# Set 3
# Cell line: mouse MPNST tumor cells
# Technique: high-content nuclear imaging
# Item: cell number
# Tested at: 10 µM
# Time: 12 h
# Setting: mean of 2 replicates
# Relative to: plate mean
# Reading: higher = more cells
Compound,nuclei count
Nc1ccc(S(N)(=O)=O)cc1,0.232 z-score
CC(=O)OCC(COC(C)=O)OC(C)=O,-0.568 z-score
CC(=O)Nc1nnc(S(N)(=O)=O)s1,0.174 z-score and 0.981 z-score and 0.547 z-score

# Other studies, line by line
SMILES,tested on,test,system,setting,scale,quantity,result
CN(C(=O)c1ccn2ncc(-c3ccc(C(N)=O)cc3)c2c1)c1ccc(C#N)cn1,Cryptosporidium parvum,time-kill,"HCT-8, nanoluciferase-expressing","0.00102 µM, 4 h",higher = more parasites,parasite luminescence,59500 RLU and 67700 RLU
COc1cc(C(=O)N2CCC(N3CCN(C)CC3)CC2)ccc1Nc1ncc2c(n1)N(C)c1ccccc1C(=O)N2C,PDK1 (mouse),"probe labelling, KiNativ ADP probe",mouse brain lysate,"1 µM, LYS1 labelled site",,inhibition,0.3%
